Values quoted from earlier work that unrelated publications cite.
Lines come from different studies, so protocols differ. Values after ≈ are worked out from the molar mass of the structure shown.

Compound | target or system | assay | test system | setting | measurement | result
CN(C)c1ncnc2c1ncn2[C@@H]1O[C@H](CO)[C@@H](NC(=O)[C@@H](N)CSC(c2ccccc2)c2ccccc2)[C@H]1O | Vero | MTT |  |  | CC50 | > 100000 nM
CCC(=O)OC1C(=O)C2(C)C(O)CC3OCC3(OC(C)=O)C2C(OC(=O)c2cccc(OC(F)F)c2)C2(O)CC(OC(=O)C(O)C(C=C(C)C)NC(=O)OC(C)(C)C)C(C)=C1C2(C)C (centres unmarked) | CFPAC-1 | cytotoxicity |  |  | IC50 | 0.42 nM
CC[C@H](C)[C@H](NC(=O)[C@H](CCCN)NC(=O)[C@H](CCCNC(=N)N)NC(=O)[C@@H]1CCCN1C(=O)[C@@H]1CCCN1C(=O)[C@H](CCCNC(=N)N)NC(=O)[C@@H]1CCCN1C(=O)[C@H](CCCNC(=N)N)NC(=O)[C@@H]1CCCN1C(=O)[C@H](CC(C)C)NC(=O)[C@H](Cc1ccc(O)cc1)NC(=O)[C@@H]1CCCN1C(=O)[C@@H]1CCCN1C(=O)[C@H](CCCCN)NC(=O)[C@H](CC(=O)O)NC(=O)[C@@H](N)C(C)C)C(=O)N[C@@H](Cc1ccc(O)cc1)C(=O)N[C@@H](CC(N)=O)C(=O)N[C@@H](CCCN)C(N)=O |  |  | mouse | intraperitoneal, 160 mg/kg total, outcome: not toxic | tolerability | not toxic
c1ccc2cc3c(ccc4ccccc43)cc2c1 |  |  | fish | dose not given, experimental mean | bioconcentration factor | 383000 L/kg
COc1cc2c(cc1-n1ccnc1)C[C@H]1[C@H]3CCCC[C@@]23CCN1C |  |  | mouse liver microsomes |  | intrinsic clearance | 47.4 µL/min/mg protein
FC(F)(F)Oc1ccc(CCNc2cc(-c3ccccc3)nc3ncnn23)cc1 | HepG2 |  |  |  | CC50 | > 100000 nM
CC(=O)OC12COC1CC(O)C1(C)C(=O)C(OC(=O)C3CC3)C3=C(C)C(OC(=O)C(O)C(C=C(C)C)NC(=O)OC(C)(C)C)CC(O)(C(OC(=O)c4cccc(OC(F)(F)F)c4)C21)C3(C)C (centres unmarked) | CFPAC-1 | cytotoxicity |  |  | IC50 | 0.79 nM
CC(C)[C@H](NC(=O)[C@H](CCCNC(=N)N)NC(=O)[C@H](Cc1ccccc1)NC(=O)[C@H](CS)NC(=O)[C@@H](N)Cc1c[nH]c2ccccc12)C(=O)N[C@@H](CS)C(=O)N[C@@H](Cc1ccccc1)C(=O)N[C@@H](CCCCN)C(=O)NCC(=O)N[C@@H](Cc1ccccc1)C(=O)N[C@@H](CS)C(=O)N[C@@H](Cc1ccc(O)cc1)C(=O)N[C@@H](CCCNC(=N)N)C(=O)N[C@@H](Cc1ccccc1)C(=O)N[C@@H](CS)C(=O)O | Escherichia coli |  |  |  | MIC | > 128 µM
COC(=O)OC1C(=O)C2(C)C(O)CC3OCC3(OC(C)=O)C2C(OC(=O)c2cccc(OC(F)F)c2)C2(O)CC(OC(=O)C(O)C(C=C(C)C)NC(=O)OC(C)(C)C)C(C)=C1C2(C)C (centres unmarked) | CFPAC-1 | cytotoxicity |  |  | IC50 | 0.49 nM
CC(C)[C@H](NC(=O)[C@H](CCCNC(=N)N)NC(=O)[C@H](Cc1ccccc1)NC(=O)[C@H](CS)NC(=O)[C@H](Cc1c[nH]c2ccccc12)NC(=O)[C@@H](N)CCCCN)C(=O)N[C@@H](CS)C(=O)N[C@@H](Cc1c[nH]c2ccccc12)C(=O)N[C@@H](CCCNC(=N)N)C(=O)N[C@@H](Cc1c[nH]c2ccccc12)C(=O)N[C@@H](Cc1ccccc1)C(=O)N[C@@H](CS)C(=O)N[C@@H](Cc1c[nH]c2ccccc12)C(=O)N[C@@H](CCCNC(=N)N)C(=O)N[C@@H](CCCCN)C(=O)N[C@@H](CS)C(=O)N[C@@H](CCCNC(=N)N)C(=O)O | Escherichia coli |  |  |  | MIC | 2 µM (≈ 4.9 µg/mL)
CCCCCCCCCCCCNC=C1N=C(c2ccc[nH]2)C=C1OC | HepG2 | cytotoxicity |  |  | IC50 | 6100 nM

Repeated from above:
Compound | target or system | assay | test system | setting | measurement | result
COc1cc2c(cc1-n1ccnc1)C[C@H]1[C@H]3CCCC[C@@]23CCN1C |  |  | mouse liver microsomes |  | intrinsic clearance | 47.4 µL/min/mg protein
CC(C)[C@H](NC(=O)[C@H](CCCNC(=N)N)NC(=O)[C@H](Cc1ccccc1)NC(=O)[C@H](CS)NC(=O)[C@H](Cc1c[nH]c2ccccc12)NC(=O)[C@@H](N)CCCCN)C(=O)N[C@@H](CS)C(=O)N[C@@H](Cc1c[nH]c2ccccc12)C(=O)N[C@@H](CCCNC(=N)N)C(=O)N[C@@H](Cc1c[nH]c2ccccc12)C(=O)N[C@@H](Cc1ccccc1)C(=O)N[C@@H](CS)C(=O)N[C@@H](Cc1c[nH]c2ccccc12)C(=O)N[C@@H](CCCNC(=N)N)C(=O)N[C@@H](CCCCN)C(=O)N[C@@H](CS)C(=O)N[C@@H](CCCNC(=N)N)C(=O)O | Escherichia coli |  |  |  | MIC | 2 µM (≈ 4.9 µg/mL)
